Assay results pooled from the literature.
Each line is one published result; not all experiments were run side by side. Numbers after ± are the reported error.
gag-pol integrase: Gag-Pol polyprotein, integrase (gag-pol, Human immunodeficiency virus type 1 group M subtype B, UniProt P04585)
F fusion protein: Fusion glycoprotein F0, fusion protein (F, Parainfluenza virus 5, UniProt P04849)
Sequence of UniProt P04849 (whole entry, looked up): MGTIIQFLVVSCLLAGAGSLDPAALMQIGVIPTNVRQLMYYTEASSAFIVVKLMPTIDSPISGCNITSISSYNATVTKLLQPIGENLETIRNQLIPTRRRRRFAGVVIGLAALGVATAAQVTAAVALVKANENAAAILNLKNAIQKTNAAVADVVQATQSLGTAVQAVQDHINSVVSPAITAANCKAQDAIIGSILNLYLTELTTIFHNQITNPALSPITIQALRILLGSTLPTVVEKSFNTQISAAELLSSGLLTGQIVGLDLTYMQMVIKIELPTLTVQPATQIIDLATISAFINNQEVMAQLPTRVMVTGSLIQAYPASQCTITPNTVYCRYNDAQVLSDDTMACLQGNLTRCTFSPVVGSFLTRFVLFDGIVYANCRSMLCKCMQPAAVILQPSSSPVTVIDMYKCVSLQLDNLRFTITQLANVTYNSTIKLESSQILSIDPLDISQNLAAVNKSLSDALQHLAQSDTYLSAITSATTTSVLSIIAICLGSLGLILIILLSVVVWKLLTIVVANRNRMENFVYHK
Sequence of UniProt P22001 (whole entry, looked up): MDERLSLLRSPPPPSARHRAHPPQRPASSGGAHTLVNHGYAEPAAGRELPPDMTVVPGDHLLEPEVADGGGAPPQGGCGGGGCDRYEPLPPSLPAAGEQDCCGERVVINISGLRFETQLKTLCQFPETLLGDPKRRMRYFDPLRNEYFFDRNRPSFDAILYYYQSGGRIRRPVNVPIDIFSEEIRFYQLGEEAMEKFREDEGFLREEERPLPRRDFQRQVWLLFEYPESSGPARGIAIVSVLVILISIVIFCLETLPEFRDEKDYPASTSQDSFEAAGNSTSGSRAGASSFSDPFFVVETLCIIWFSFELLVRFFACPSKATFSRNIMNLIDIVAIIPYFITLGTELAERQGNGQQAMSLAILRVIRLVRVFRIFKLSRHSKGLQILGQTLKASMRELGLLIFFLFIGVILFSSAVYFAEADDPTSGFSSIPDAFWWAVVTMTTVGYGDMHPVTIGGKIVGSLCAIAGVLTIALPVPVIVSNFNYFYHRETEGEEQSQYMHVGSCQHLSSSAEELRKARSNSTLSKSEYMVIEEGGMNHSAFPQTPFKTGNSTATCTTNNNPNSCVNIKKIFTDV
Sequence of UniProt O95180 (whole entry, looked up): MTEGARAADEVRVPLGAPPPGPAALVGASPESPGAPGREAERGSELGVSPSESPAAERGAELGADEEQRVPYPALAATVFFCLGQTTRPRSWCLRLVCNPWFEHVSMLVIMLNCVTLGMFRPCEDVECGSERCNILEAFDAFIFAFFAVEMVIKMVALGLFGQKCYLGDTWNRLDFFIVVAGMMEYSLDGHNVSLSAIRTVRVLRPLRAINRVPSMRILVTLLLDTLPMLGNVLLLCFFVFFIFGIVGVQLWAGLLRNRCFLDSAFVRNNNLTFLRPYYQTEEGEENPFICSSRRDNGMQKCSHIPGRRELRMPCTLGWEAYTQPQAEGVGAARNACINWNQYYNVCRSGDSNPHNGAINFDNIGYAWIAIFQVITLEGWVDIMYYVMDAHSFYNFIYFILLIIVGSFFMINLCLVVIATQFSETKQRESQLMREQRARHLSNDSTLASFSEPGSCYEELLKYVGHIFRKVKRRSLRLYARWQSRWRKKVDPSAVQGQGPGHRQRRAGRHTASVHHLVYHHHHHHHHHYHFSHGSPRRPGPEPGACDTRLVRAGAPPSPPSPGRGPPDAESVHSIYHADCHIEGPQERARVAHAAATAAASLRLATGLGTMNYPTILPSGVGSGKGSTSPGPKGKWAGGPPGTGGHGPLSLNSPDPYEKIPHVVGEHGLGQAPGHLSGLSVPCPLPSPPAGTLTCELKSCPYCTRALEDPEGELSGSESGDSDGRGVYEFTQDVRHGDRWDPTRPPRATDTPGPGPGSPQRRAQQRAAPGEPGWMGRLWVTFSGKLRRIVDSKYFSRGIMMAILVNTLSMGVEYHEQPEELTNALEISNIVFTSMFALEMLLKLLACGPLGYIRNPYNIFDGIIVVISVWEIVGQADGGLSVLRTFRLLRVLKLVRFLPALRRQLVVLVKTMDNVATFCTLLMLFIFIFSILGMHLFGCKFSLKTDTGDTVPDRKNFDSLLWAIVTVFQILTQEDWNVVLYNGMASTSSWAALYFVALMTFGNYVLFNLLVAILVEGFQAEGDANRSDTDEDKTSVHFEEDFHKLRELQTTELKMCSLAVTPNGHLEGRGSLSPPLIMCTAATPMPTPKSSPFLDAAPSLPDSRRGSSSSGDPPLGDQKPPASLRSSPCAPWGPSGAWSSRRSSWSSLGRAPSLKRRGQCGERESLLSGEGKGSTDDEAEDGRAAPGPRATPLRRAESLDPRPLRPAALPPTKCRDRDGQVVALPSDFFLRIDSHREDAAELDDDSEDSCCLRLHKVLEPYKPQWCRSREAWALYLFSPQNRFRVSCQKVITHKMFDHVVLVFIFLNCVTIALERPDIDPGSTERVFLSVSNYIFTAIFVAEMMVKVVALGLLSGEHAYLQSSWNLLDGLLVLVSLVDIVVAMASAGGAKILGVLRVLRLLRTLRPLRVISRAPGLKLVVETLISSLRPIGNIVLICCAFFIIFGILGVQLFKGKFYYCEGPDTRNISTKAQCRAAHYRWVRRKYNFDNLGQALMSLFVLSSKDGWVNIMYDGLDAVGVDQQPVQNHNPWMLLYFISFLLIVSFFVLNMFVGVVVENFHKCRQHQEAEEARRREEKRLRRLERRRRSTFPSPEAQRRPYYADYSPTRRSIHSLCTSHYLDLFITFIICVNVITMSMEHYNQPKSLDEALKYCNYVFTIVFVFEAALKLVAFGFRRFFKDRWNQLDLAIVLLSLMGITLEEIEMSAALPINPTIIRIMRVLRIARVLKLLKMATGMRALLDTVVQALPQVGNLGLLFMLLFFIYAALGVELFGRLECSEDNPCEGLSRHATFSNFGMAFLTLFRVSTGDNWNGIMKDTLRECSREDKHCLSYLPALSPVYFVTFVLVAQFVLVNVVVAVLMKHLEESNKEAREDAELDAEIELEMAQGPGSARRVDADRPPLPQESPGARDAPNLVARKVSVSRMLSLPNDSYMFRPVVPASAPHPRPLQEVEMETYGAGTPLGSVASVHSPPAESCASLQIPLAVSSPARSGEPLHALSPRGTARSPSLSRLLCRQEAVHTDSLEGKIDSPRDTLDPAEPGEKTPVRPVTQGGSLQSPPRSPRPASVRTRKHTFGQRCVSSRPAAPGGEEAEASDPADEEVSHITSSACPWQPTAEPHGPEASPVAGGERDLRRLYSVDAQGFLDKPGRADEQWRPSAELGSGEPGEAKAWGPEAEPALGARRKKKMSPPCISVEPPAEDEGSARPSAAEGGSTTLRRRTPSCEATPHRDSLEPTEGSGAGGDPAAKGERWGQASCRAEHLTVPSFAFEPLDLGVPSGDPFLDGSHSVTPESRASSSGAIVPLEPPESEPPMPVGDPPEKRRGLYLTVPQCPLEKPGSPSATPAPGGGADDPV
Sequence of UniProt P32300 (whole entry, looked up): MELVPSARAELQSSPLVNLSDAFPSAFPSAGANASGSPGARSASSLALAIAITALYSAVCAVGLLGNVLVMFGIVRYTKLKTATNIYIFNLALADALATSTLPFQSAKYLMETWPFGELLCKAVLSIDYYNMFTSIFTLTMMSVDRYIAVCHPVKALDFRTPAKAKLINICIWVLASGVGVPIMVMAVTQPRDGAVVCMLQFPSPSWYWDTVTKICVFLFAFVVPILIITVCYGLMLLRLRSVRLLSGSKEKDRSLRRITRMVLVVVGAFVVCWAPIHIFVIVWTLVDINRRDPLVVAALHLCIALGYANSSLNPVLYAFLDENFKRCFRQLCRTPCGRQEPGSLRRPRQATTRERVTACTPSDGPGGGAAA

SMILES	target	test	test system	setting	IC50 [nM]
CC[C@H](C)[C@@H]1NC(=O)[C@@H](NC(=O)[C@H](CO)NC(=O)[C@@H](N)CCCNC(=N)N)CSSC[C@@H](C(=O)O)NC(=O)[C@H]([C@@H](C)O)NC(=O)CNC(=O)[C@@H]2CSSC[C@@H]3NC(=O)[C@H](CCC(N)=O)NC(=O)[C@H](Cc4ccccc4)NC(=O)[C@H](C)NC(=O)[C@H]([C@@H](C)O)NC(=O)[C@H](CSSC[C@H](NC(=O)[C@H](Cc4ccccc4)NC(=O)[C@H](CO)NC(=O)[C@H](CC(C)C)NC(=O)[C@H](CCCNC(=N)N)NC(=O)[C@H](Cc4ccc(O)cc4)NC(=O)[C@H](CCCCN)NC(=O)[C@H](CCSC)NC(=O)[C@H](CO)NC(=O)[C@H](Cc4cnc[nH]4)NC(=O)[C@H](CCCCN)NC3=O)C(=O)N[C@@H](CCCNC(=N)N)C(=O)N[C@@H](CCCCN)C(=O)N[C@@H]([C@@H](C)O)C(=O)N2)NC(=O)[C@H](CCCNC(=N)N)NC(=O)[C@H](CO)NC(=O)[C@H](CCCCN)NC(=O)[C@@H]2CCCN2C(=O)[C@H]([C@@H](C)CC)NC(=O)[C@H]([C@@H](C)O)NC(=O)[C@H](CC(=O)O)NC1=O	KCNA3 (Homo sapiens, UniProt P22001)	ion current, inhibitor	–	pH 7.4, oocytes	0.25
CC(=O)NCCCC[C@@H](NC(=O)[C@@H](N)Cc1ccc(O)cc1)C(=O)N[C@@H](Cc1ccccc1)C(=O)NCC(=O)N[C@@H](Cc1ccc(O)cc1)C(=O)N1CCC[C@H]1C(=O)N[C@@H](CO)C(N)=O	Oprd1 (Mus musculus, UniProt P32300)	radioligand binding	CHO cells	together with: 0.15 nM [3H]DPDPE	436 ± 34
CC[C@H](C)[C@H](NC(=O)[C@H](CCCNC(=N)N)NC(=O)[C@H](Cc1ccccc1)NC(=O)[C@H](Cc1c[nH]cn1)NC(=O)[C@@H](NC(=O)[C@H](Cc1ccccc1)NC(=O)[C@H](CC(C)C)NC(=O)[C@H](CC(C)C)NC(=O)[C@H](CCC(N)=O)NC(=O)[C@H](CCC(N)=O)NC(=O)[C@H](CC(C)C)NC(=O)[C@@H]1CCCC=CCCC[C@H](NC(=O)[C@H](CCC(=O)O)NC(C)=O)C(=O)N[C@@H]([C@@H](C)CC)C(=O)N[C@@H]([C@@H](C)CC)C(=O)N[C@@H](CCCNC(=N)N)C(=O)N1)[C@@H](C)CC)C(=O)NCC(N)=O	gag-pol integrase	strand transfer, inhibitor	HIV-1	–	1100 ± 80
CC[C@H](C)[C@H](NC(=O)[C@H](C)NC(=O)[C@H](CO)NC(=O)[C@H](CC(C)C)NC(=O)[C@H](Cc1ccc(O)cc1)NC(=O)[C@@H](NC(=O)[C@H](CC(=O)O)NC(=O)[C@H](CO)NC(=O)[C@H](CCC(N)=O)NC(=O)[C@H](C)NC(=O)[C@H](CC(C)C)NC(=O)[C@H](Cc1c[nH]cn1)NC(=O)[C@H](CCC(N)=O)NC(=O)[C@H](CC(C)C)NC(=O)[C@H](C)NC(=O)[C@H](CC(=O)O)NC(=O)[C@H](CO)NC(=O)[C@H](CC(C)C)NC(=O)[C@H](CO)NC(=O)[C@H](CCCCN)NC(=O)[C@H](CC(N)=O)NC(=O)[C@@H](NC(=O)[C@H](C)NC(=O)[C@H](C)NC(=O)[C@H](CC(C)C)NC(=O)[C@H](CC(N)=O)NC(=O)[C@H](CCC(N)=O)NC(=O)[C@H](CO)NC(=O)[C@@H](NC(=O)[C@H](CC(=O)O)NC(=O)[C@H](C)NC(=O)[C@@H]1CCCN1C(=O)[C@H](CC(=O)O)NC(=O)[C@@H](NC(=O)[C@H](CO)NC(=O)[C@H](CC(C)C)NC(=O)[C@@H](NC(=O)[C@H](CCC(N)=O)NC(=O)[C@H](CO)NC(=O)[C@H](CO)NC(=O)[C@H](CCC(=O)O)NC(=O)[C@H](CC(C)C)NC(=O)[C@@H](N)CCCCN)[C@@H](C)CC)[C@@H](C)CC)[C@@H](C)CC)C(C)C)[C@@H](C)O)C(=O)O	F fusion protein	cell-cell fusion, inhibitor, luciferase reporter	Vero plus BSR-T7 cells	6 h, 37 °C, together with: SV5 F and HN	92 ± 10
O=C1c2ccc(O)c(O)c2C(=O)N1Cc1ccc(F)c(Cl)c1	Gag-Pol polyprotein, integrase (gag-pol, Human immunodeficiency virus 1, UniProt P12497, Y1290R)	enzyme activity, inhibitor	–	–	1100 ± 200
CC(C)C[C@@H]1NC(=O)[C@H](Cc2c[nH]c3ccccc23)NC(=O)[C@H](Cc2ccc(O)cc2)NC(=O)[C@H](CCCNC(=N)N)NC(=O)[C@@H](NC(=O)[C@@H](N)CCC(=O)O)CSSC[C@@H]2NC(=O)[C@@H]3CSSC[C@@H](C(=O)N[C@H](C(=O)N[C@@H](Cc4c[nH]c5ccccc45)C(=O)N[C@@H](CC(=O)O)C(=O)NCC(=O)N[C@H](C(=O)N[C@@H](Cc4ccccc4)C(=O)N[C@@H](CO)C(=O)O)[C@@H](C)O)C(C)C)NC(=O)[C@H](Cc4c[nH]c5ccccc45)NC(=O)CNC(=O)[C@H](Cc4c[nH]cn4)NC(=O)[C@H](CCCNC(=N)N)NC(=O)[C@H](CCCNC(=N)N)NC(=O)[C@H](CO)NC(=O)[C@H](CSSC[C@H](NC(=O)CNC(=O)CNC1=O)C(=O)N[C@@H](CO)C(=O)N[C@@H](C)C(=O)NCC(=O)N[C@@H](CCC(N)=O)C(=O)N[C@@H]([C@@H](C)O)C(=O)N3)NC(=O)[C@H](C(C)C)NC(=O)[C@H](CC(C)C)NC(=O)[C@H](Cc1c[nH]cn1)NC(=O)[C@H](CCCCN)NC2=O	CACNA1H (Homo sapiens, UniProt O95180)	calcium signal, antagonist, fluorescence	–	–	1400
CC[C@H](C)[C@H](NC(=O)[C@H](C)NC(=O)[C@H](CO)NC(=O)[C@H](CC(C)C)NC(=O)[C@H](Cc1ccc(O)cc1)NC(=O)[C@@H](NC(=O)[C@H](CC(=O)O)NC(=O)[C@H](CO)NC(=O)[C@H](CCC(N)=O)NC(=O)[C@H](C)NC(=O)[C@H](CC(C)C)NC(=O)[C@H](Cc1c[nH]cn1)NC(=O)[C@H](CCC(N)=O)NC(=O)[C@H](CC(C)C)NC(=O)[C@H](C)NC(=O)[C@H](CC(=O)O)NC(=O)[C@H](CO)NC(=O)[C@H](CC(C)C)NC(=O)[C@H](CO)NC(=O)[C@H](CCCCN)NC(=O)[C@H](CC(N)=O)NC(=O)[C@@H](NC(=O)[C@H](C)NC(=O)[C@H](C)NC(=O)[C@H](CC(C)C)NC(=O)[C@H](CC(N)=O)NC(=O)[C@H](CCC(N)=O)NC(=O)[C@H](CO)NC(=O)CNC(=O)[C@H](CC(=O)O)NC(=O)[C@H](CC(C)C)NC(=O)[C@@H]1CCCN1C(=O)[C@H](CC(=O)O)NC(=O)[C@@H](NC(=O)[C@H](CO)NC(=O)[C@H](CC(C)C)NC(=O)[C@@H](NC(=O)[C@H](CCC(N)=O)NC(=O)[C@H](CO)NC(=O)[C@H](CO)NC(=O)[C@H](CCC(=O)O)NC(=O)[C@H](CC(C)C)NC(=O)[C@@H](N)CCCCN)[C@@H](C)CC)[C@@H](C)CC)C(C)C)[C@@H](C)O)C(=O)O	F fusion protein	cell-cell fusion, inhibitor, luciferase reporter	Vero plus BSR-T7 cells	6 h, 37 °C, together with: SV5 F and HN	271 ± 24
C=CCCC[C@](C)(N)C(=O)N[C@@H](C)C(=O)N[C@@H](Cc1ccc(O)cc1)C(=O)N[C@@H](Cc1ccccc1)C(=O)N[C@@](C)(CCCC=C)C(=O)N[C@@H](CC(C)C)C(=O)N[C@@H](CCCCN)C(=O)N[C@@H](CC(C)C)C(=O)N[C@@H](C)C(=O)NCC(=O)N[C@@H](CCCNC(=N)N)C(=O)N[C@@H](Cc1c[nH]c2ccccc12)C(N)=O	gag-pol integrase	integrase 3'-processing, inhibitor	–	–	22000 ± 8000
CC(C)C[C@H](NC(=O)[C@H](CC(=O)O)NC(=O)[C@H](Cc1ccc(O)cc1)NC(=O)[C@H](CCCCN)NC(=O)[C@@H]1CSSC[C@@H]2NC(=O)[C@H](CCCCN)NC(=O)[C@H](CC(=O)O)NC(=O)[C@H](CC(N)=O)NC(=O)[C@H](CO)NC(=O)[C@@H]3CCCN3C(=O)[C@H](CC(N)=O)NC(=O)[C@@H]3CSSC[C@H](NC(=O)[C@H](C(C)C)NC(=O)[C@H](CC(C)C)NC(=O)[C@H](CO)NC(=O)[C@H](CO)NC(=O)[C@H](CO)NC(=O)[C@H](CCCCN)NC(=O)[C@H](CSSC[C@H](NC(=O)[C@H](C)N)C(=O)N[C@@H](CC(C)C)C(=O)NCC(=O)N[C@@H](Cc4ccccc4)C(=O)NCC(=O)N[C@@H](CCC(=O)O)C(=O)N[C@@H](CCCCN)C(=O)N3)NC2=O)C(=O)N[C@@H](CO)C(=O)N[C@@H](CCC(N)=O)C(=O)N[C@@H](CCCCN)C(=O)N[C@@H](Cc2c[nH]cn2)C(=O)N[C@@H](CCCCN)C(=O)N[C@@H](Cc2c[nH]c3ccccc23)C(=O)N1)C(=O)O	SCN9A (Homo sapiens, UniProt Q15858)	sodium current, inhibitor, whole-cell patch clamp	HEK293T transfected with hNav1.7	room temperature, holding -80 mV, step to 0 mV for 50 ms	487
C=CCCC[C@H](NC(=O)[C@H](CC(C)C)NC(=O)[C@H](CCC(N)=O)NC(=O)[C@H](CCC(N)=O)NC(=O)[C@H](CCCC=C)NC(=O)[C@@H](NC(=O)[C@H](CCCNC(=N)N)NC(=O)[C@@H](NC(=O)[C@@H](NC(=O)[C@H](C)NC(=O)[C@H](CCC(=O)O)NC(C)=O)[C@@H](C)CC)[C@@H](C)CC)[C@@H](C)CC)C(=O)N[C@@H](Cc1ccccc1)C(=O)N[C@H](C(=O)N[C@@H](Cc1c[nH]cn1)C(=O)N[C@@H](Cc1ccccc1)C(=O)N[C@@H](CCCNC(=N)N)C(=O)N[C@H](C(=O)NCC(N)=O)[C@@H](C)CC)[C@@H](C)CC	gag-pol integrase	strand transfer, inhibitor	HIV-1	–	900 ± 60

Excerpt of the above:
SMILES	target	test	test system	setting	IC50 [nM]
CC[C@H](C)[C@H](NC(=O)[C@H](CCCNC(=N)N)NC(=O)[C@H](Cc1ccccc1)NC(=O)[C@H](Cc1c[nH]cn1)NC(=O)[C@@H](NC(=O)[C@H](Cc1ccccc1)NC(=O)[C@H](CC(C)C)NC(=O)[C@H](CC(C)C)NC(=O)[C@H](CCC(N)=O)NC(=O)[C@H](CCC(N)=O)NC(=O)[C@H](CC(C)C)NC(=O)[C@@H]1CCCC=CCCC[C@H](NC(=O)[C@H](CCC(=O)O)NC(C)=O)C(=O)N[C@@H]([C@@H](C)CC)C(=O)N[C@@H]([C@@H](C)CC)C(=O)N[C@@H](CCCNC(=N)N)C(=O)N1)[C@@H](C)CC)C(=O)NCC(N)=O	gag-pol integrase	strand transfer, inhibitor	HIV-1	–	1100 ± 80
